# Measured values of several laboratories.
# Parts stem from different laboratories: compare values within a part only.

# Set 1 — technique: RNAcompete; molecule type: RNA; matrix: in vitro; concentration: 20 nM; notes: 7-mer, probes averaged, single round; baseline: mean of 7-mers; reading: higher = stronger binding
# Target: PABPC1L2, full length, GST fusion (mouse, UniProt A0ABA7IW68)
# Construct (chain): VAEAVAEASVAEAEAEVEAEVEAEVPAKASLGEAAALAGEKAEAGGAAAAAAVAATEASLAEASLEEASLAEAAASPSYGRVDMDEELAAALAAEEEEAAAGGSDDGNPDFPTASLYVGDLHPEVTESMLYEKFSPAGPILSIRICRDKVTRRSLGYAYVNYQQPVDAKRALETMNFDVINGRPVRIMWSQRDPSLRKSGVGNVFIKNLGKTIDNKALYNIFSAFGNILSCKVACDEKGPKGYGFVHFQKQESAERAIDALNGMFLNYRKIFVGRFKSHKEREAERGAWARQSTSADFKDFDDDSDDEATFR
Oligonucleotide,7-mer Z-score
CCUGAGC,-0.253
UGCAGAA,0.323
AUAACAA,0.477
UACUAUA,-0.0899
AUCUAUU,-0.211
GCUAACG,-0.249
CCCUACG,-0.349
ACGACUA,0.1
UACUAUG,-0.0536
GAUCGGA,-0.0428
GUUAGUA,-0.197
CAAUGCG,-0.119
CCCACGG,-0.262
GCUUAGC,-0.179
AGGCCGG,0.0116
UAGCGAG,0.1
GUCACUG,-0.28
AUUGAUC,-0.142
UAAACAU,2.09
AGUUUGC,-0.387
CUCCAAU,-0.193
UUAUGCU,-0.271
UCUGAUA,-0.211
CAUUGGG,0.0913
CGAAGAG,-0.11

# Set 2 — technique: RNA Bind-n-Seq; molecule type: RNA; matrix: in vitro; concentration: 365 nM; baseline: no-protein control; reading: higher = stronger binding
# Target: RNA binding protein fox-1 homolog 2, RRM domain, GST-SBP tag (RBFOX2, Homo sapiens, UniProt O43251-10, residues 100-194)
# Notes: natural RNA segment, single round, ends assumed
# Shared flanks, not repeated: GGGAGUUCUACAGUCCGACGAUC … UGGAAUUCUCGGGUGCCAA
# Residues (chain): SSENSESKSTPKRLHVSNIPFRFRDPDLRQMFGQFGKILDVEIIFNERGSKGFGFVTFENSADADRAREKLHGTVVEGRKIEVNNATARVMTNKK
Oligonucleotide,RBNS enrichment (R)
AAGGUGCACUACAAAAAGAUGUAUGCAAACAAACAUGUUUUAAAUCAGGUCAGAUAUCUGAUGAAAAAUACGAACUAAUGUUAAGAGCAAGUAGUUUCAACAUACUCCAG,0.321
CAAGCCCAGGCAGACGAGACCUCUGCCCUGAAGACCAACACCAGCCCGUGGGCUGCCCCCUGCCUCCCCACCCUCCCCAUGGCCCACCCAUCUGGGCUGUCUCUGCAGGG,0.314
CCAGCCCAGCCUGAUGGUGUAAAUGUACUGUUUCAGAAAACACAUGAGGCUCACCGAAGGCUGAAGAUGUGUGAGCCGGCAAGCCAGGCCUGGUGCCACAGCUUGAUGAG,0.649
GGCUGUGGGGUAUCCACCUCGCCCAAGUCUCCUUUUACUGAAAUAAAAUUUGAGGGGAAGAGAAAAAACUUACACGAGCACCGAAUUUCAAAUAAACGAAAAUGAGACAU,0.385
AUUUGUAAAAUUAACACUAAAGAUGCAUGUGAGUCAUUUCACCAAAAGGAACUCUAUUAAUAAGCUAGACUGCUUUUGGUUUCCAGUAAUUGGUUUAAAAACACAGUAAA,0.542
CCCAUGGUUCAAGUGACAGUGGGUGACCUUGUCUGCCAAGAUCUUUCUUUUGAAUGUUUUGAACCCAACUACUUGUCAUAGAUGUUUGACUGUGUCAAAAGCUGUGAGCA,2.1
CAACGACGUGGACCUGCGUGGGGACCAGCCCUCCCUGGGCAGCUUCACCUACUCCACCUCUGCGCCUGGCCCAGCCCUUUCCCCGUCGGUGCCCCUGCACUACCUGCCCC,0.72
CCUGAGAAAUCAGGACAUGGAAAUCAGAGCAUAUACAUAAGGAACUUAAUUUUAAUGUAAUCAUGUCUAAUGAUCCUCAUCUUCAUUCCUUGAGAUUACCCAAGUACCGU,0.291
UUUUUUCUUCGUCCUUUUGGUUUAAAAAGUUUCACGUCUUGGUGCCUUUUGUGUGAUGCGCCUUGCUGAUGGCUUGACAUGUGCAAUUGUGAGGGACAUGCUCACCUCUA,1.31
AAAGACUAGGUACUGUAAGCAUACAUUUGUGCGAGCUGGCUUAGGGUUGGUUCCUCAUCCUCCACCCUGACCUUUCCUCUGGCCUGUUCAAGGCCUGGUAAAGUCAGGCU,0.146
GAUACCAGCAGGCCCUUAAGCCUUCCAGGACACUAAGGUCGUGGGAGCGGGACUGCAACAAGCAAUGCCAGAUAACUGAGAAAUCAUGUUCUUUGUGGACUAUUUCAGAC,0.255
UGUUUUGUUUUACAAUGUCAGACUGCCAUGUUCAAGUUUUAAUUUCCUCAUAGAGUGUAUUUACAGAUGCCCUUUUUUGUACUUUUUUUUUUAAUUGUGAUCUAUUUUGG,1.05

# Set 3 — technique: protein binding microarray; molecule type: double-stranded DNA, one strand shown; matrix: in vitro; concentration: not given; baseline: not given; reading: higher = stronger binding
# Target: Histone acetyltransferase KAT6A, winged helix 1, GST fusion (KAT6A, Homo sapiens, UniProt Q92794, residues 1-85)
# Notes: 8-mer, flanks averaged, mean of 2 arrays, mostly near background
# Construct (chain): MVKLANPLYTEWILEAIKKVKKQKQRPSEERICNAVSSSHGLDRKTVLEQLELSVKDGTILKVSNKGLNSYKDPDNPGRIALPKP
Oligonucleotide,E-score
GAGTCAGC,-0.0123
CAAGAAAA,-0.161
ACTGGAGA,-0.206
GCTGCGGA,0.0824
CAGCCTGG,-0.0651
GCTAAATA,-0.0599
AATACGGC,0.299
GTCTTCCA,-0.166
CGTGCGTC,0.28
AGTAATAA,-0.0198
ACTGTCGC,0.167
GACCTTAA,-0.113
AGCTGCCG,0.291
GACCGGAC,0.0778
CTGTAAAA,-0.181
AGTACTCG,0.0158
ATCTCAGA,-0.223
CGGGAAAA,0.223
ACTATGAG,-0.199

# Set 4 — technique: competition protein-binding microarray; molecule type: double-stranded DNA, one strand shown; matrix: in vitro; concentration: 2 µM; added: Pho4 competitor, 0.05 µM; reading: higher = stronger binding; shared flanks, not repeated: … GTCTTGATTCGCTTGACGCTGCTG
# Target: Centromere-binding protein 1, full length, His-tagged (CBF1, Saccharomyces cerevisiae, UniProt P17106, residues 1-351)
# Chain of UniProt P17106 (whole entry, looked up): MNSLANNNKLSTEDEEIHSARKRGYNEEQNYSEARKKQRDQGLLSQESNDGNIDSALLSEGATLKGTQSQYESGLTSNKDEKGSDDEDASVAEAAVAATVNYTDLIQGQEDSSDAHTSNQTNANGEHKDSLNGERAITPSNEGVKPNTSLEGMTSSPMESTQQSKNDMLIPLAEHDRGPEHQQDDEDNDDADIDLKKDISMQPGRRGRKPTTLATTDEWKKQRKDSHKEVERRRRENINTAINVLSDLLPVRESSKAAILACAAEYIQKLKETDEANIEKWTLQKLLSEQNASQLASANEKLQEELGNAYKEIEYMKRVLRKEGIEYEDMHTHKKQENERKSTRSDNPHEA
# Notes: whole 60-bp probe, lowest competitor level
Oligonucleotide,fluorescence intensity
GTCTTGTCTCATTGGCTCGTGGGTGTCCCCACTTCA,82.2 a.u.
AAAGCGGTAATTTGACTGGTGGGTGCAGATATCTAT,74.2 a.u.
TCAGCACCCTTTGGACTCGTGATGGCGTTGAAAGGT,192 a.u.
TGCGCAACAACTTGTGGAGTGGGTGTATGTCTAGAA,62.7 a.u.
GAATGAGGTTGATAACTCGTGGATTTTTTATACCTG,83.6 a.u.
ACCCTGAGAATTGGCACCGTGACGGTATTGATTCCA,98.7 a.u.
CGCAGTATATCGTTACGCGTGAGGAGGATCTGCGCT,69.9 a.u.
GGACCCGGCCCCGCGCACGCGGACTCCGGGACTACA,56.9 a.u.
CTAACGAAGGTTTGCTAGGTGGGTGACAAGCCAAGT,62.4 a.u.
CGGATATTCTTTCTTCACGTGCATCTACTGCTTTTT,1060 a.u.
GTCCGATATGCCCGGAACGTGCTTTCCATTGGTGCA,112 a.u.
GCCACTCTAGACCGTCACATGTCCAATGTTTCTTTT,921 a.u.
AAAGCGGTAATTTCTCACGTGTTTTCACATATCTAT,1310 a.u.
GTCTTGTCTCATTGCTATGTGGGTGTCCCCACTTCA,79.9 a.u.
CACTACCACTGCGCACCCGTGACGGTGCTCCAAAGT,162 a.u.
ATTTGGACAAGGTTCCACGTGAGTATGTTCGTTATT,799 a.u.
GCGTCGTTTGTAGCCGACGTGCTTTATTTATACGGT,87.4 a.u.
TAAACTTTCTACGGCCACGTGTAACCTCTTTCAGAA,876 a.u.
AAATTACTAAGTTGCTAGGTGGGTGACGCCGTATGA,71 a.u.
TTTTTTTCCCAGAGACGCGTGGAAGCACCCATGGAT,62.2 a.u.
CATACCCAACCTTGACCAGTGGGTGAAGATATTTGT,58.6 a.u.
ATTGTTTGGCTTCGTCACGTGGGTAAGTGCCGGAGA,3000 a.u.
ACCGCAATGGCGCTTCACGTGTTGGGTAACCACAAC,839 a.u.
CATTGGTAATGTAACCACGTTTTGAGCCTGAAATGG,160 a.u.
AAGACGAAAGGAGTGCAGGTGATGACAACCTCAGTG,97.5 a.u.

# Set 5 — technique: universal PBM; molecule type: double-stranded DNA, one strand shown; matrix: in vitro; concentration: not given; reading: higher = stronger binding
# Target: Sal-like protein 4, full length isoform B (SALL4, Homo sapiens, UniProt Q9UJQ4-2, residues 1-616)
# Notes: 8-mer, flanks averaged, mean of replicates
# Target sequence (chain): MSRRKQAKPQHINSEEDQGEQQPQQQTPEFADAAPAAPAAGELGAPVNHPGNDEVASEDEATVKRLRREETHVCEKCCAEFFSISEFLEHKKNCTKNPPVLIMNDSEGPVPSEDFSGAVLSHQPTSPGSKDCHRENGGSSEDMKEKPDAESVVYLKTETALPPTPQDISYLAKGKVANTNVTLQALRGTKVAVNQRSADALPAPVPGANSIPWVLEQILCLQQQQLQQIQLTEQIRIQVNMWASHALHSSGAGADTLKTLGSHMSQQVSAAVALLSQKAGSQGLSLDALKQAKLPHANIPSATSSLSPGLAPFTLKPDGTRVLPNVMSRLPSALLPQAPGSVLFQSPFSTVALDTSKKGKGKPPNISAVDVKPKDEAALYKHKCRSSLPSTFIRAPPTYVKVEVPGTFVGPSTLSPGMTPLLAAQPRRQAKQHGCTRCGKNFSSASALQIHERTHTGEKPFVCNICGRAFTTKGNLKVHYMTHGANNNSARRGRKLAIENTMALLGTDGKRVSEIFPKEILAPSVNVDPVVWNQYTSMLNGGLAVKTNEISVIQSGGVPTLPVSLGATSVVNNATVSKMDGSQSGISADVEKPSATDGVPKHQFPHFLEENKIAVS
Oligonucleotide,E-score
ATTAGTCC,0.197
ATTCTCCA,0.143
AATTTGCG,0.0641
CAAGGCCG,-0.209
CACATGTG,0.0506
ATGCCCTG,-0.143
CTTAAGCA,0.0471
AGTAATCC,0.161
ATTGTCAC,0.0826
CCGTTGAG,-0.0863
AATCGCTA,-0.0134
CACACTCC,-0.0504
AACTGTCC,-0.273
CATTTCGG,0.0372
CAGCGTAC,-0.253
AGTAGTGG,-0.0372
AAGATCAC,0.0305
CCTCCTCG,-0.204
AATTTTAA,0.384
CAACACGC,-0.039
AGCCTACC,-0.166
GCTAAGCC,-0.156
GGGGGTTA,-0.0227
AAGCTTGG,-0.0681
GGGTGGCA,-0.309

# Some of these lines once more (set 4):
Oligonucleotide,fluorescence intensity
GTCCGATATGCCCGGAACGTGCTTTCCATTGGTGCA,112 a.u.
GCCACTCTAGACCGTCACATGTCCAATGTTTCTTTT,921 a.u.
AAAGCGGTAATTTCTCACGTGTTTTCACATATCTAT,1310 a.u.
GTCTTGTCTCATTGCTATGTGGGTGTCCCCACTTCA,79.9 a.u.
CACTACCACTGCGCACCCGTGACGGTGCTCCAAAGT,162 a.u.
ATTTGGACAAGGTTCCACGTGAGTATGTTCGTTATT,799 a.u.
GCGTCGTTTGTAGCCGACGTGCTTTATTTATACGGT,87.4 a.u.
TAAACTTTCTACGGCCACGTGTAACCTCTTTCAGAA,876 a.u.
AAATTACTAAGTTGCTAGGTGGGTGACGCCGTATGA,71 a.u.
TTTTTTTCCCAGAGACGCGTGGAAGCACCCATGGAT,62.2 a.u.
CATACCCAACCTTGACCAGTGGGTGAAGATATTTGT,58.6 a.u.
ATTGTTTGGCTTCGTCACGTGGGTAAGTGCCGGAGA,3000 a.u.
